Assay results pooled from the literature.
Lines come from different studies, so protocols differ.
Target: Peroxisome proliferator-activated receptor gamma (PPARG, Homo sapiens, UniProt P37231)
Sequence (P37231 238-503, limits assumed, as in one of the studies): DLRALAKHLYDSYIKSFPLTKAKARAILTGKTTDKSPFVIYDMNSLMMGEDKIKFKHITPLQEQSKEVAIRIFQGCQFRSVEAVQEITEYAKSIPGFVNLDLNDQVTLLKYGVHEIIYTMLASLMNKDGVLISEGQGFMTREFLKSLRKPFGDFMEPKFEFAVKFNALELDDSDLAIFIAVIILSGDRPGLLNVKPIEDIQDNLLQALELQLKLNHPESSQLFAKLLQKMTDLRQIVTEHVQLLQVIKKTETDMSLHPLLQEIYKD

With `CC(C)(Oc1ccc(Cl)cc1)C(=O)O` the EC10 was 18.6 µM (reporter gene, agonist, β-lactamase reporter; HEK293-H cells; freely dissolved concentration).
Under “binding free energy”, `CC1(C)C=Cc2c(ccc3c2OC[C@@H](c2ccc(O)cc2O)C3)O1` is recorded as -7.59 kcal/mol (ITC; binary complex no Med1).
For `CN(CCOc1ccc(C[C@H](Nc2ccccc2C(=O)c2ccccc2)C(=O)O)cc1)c1ccccn1.O`, the breakthrough time was 34.5 min (binding, frontal affinity chromatography-MS; 0.5 µM, equimolar ligand mixture).
`CCO[C@@H](Cc1ccc(OCCc2ccc(OS(C)(=O)=O)cc2)cc1)C(=O)O` — result for “binding free energy”: -8.82 kcal/mol (ITC; binary complex no Med1).
`CCO[C@H](COc1ccc(C(F)(F)F)cc1)CSc1ccc(OCC(=O)O)c(C)c1` has an Emax of 83% (receptor activation, agonist, cell-based).
For `C=C1C(=O)O[C@@H]2C[C@@]3(C)CCCC(=C)[C@@H]3C[C@H]12`, the activation was 1.2 fold (reporter gene, Gal4 hybrid reporter; 10 µM; relative to: vehicle).
With `O=c1[nH]c2ccccc2s1` the specificity ratio was 26.7 (reporter gene, agonist, β-lactamase reporter; HEK293-H cells; nominal concentration; relative to: cytotoxicity IC10 over EC10).
For `O=C(O)CCCc1cc2cc(Cl)ccc2n1S(=O)(=O)c1ccc2ncsc2c1`, the Emax was 91% (receptor activation, agonist, cell-based).
For `CC[C@@H](Oc1cccc(CN(CCCOc2ccc(OC)cc2)c2nc3ccccc3o2)c1)C(=O)O`, “binding free energy” read -6.86 kcal/mol (ITC; binary complex no Med1).
`CCCCCCCCC(=O)c1cc(O)c(O)c(O)c1` gave an activation of 2.68 fold (reporter gene, Gal4 hybrid reporter; 10 µM; relative to: vehicle).
`CC(C)(Oc1ccc(CCNC(=O)c2ccc(Cl)cc2)cc1)C(=O)O` has an EC10 of 12.8 µM (reporter gene, agonist, β-lactamase reporter; HEK293-H cells; freely dissolved concentration).
The activation of `COC(=O)c1cn(C)c2ccc(-c3cccnc3)cc12` is reported as 1.26 fold (reporter gene, Gal4 hybrid reporter; 10 µM; relative to: vehicle).
The fold change of `N#Cc1cc2cc(S(N)(=O)=O)ccc2oc1=N` is reported as 1.36 (ELISA, measured: PPARγ protein; concentration not given; relative to: control).
